Experimental data pooled from the literature.
Protocols differ between the studies behind these lines.
ACVR1B: Activin receptor type-1B (ACVR1B, Homo sapiens, UniProt P36896)
Sequence of UniProt P36896 (whole entry, looked up): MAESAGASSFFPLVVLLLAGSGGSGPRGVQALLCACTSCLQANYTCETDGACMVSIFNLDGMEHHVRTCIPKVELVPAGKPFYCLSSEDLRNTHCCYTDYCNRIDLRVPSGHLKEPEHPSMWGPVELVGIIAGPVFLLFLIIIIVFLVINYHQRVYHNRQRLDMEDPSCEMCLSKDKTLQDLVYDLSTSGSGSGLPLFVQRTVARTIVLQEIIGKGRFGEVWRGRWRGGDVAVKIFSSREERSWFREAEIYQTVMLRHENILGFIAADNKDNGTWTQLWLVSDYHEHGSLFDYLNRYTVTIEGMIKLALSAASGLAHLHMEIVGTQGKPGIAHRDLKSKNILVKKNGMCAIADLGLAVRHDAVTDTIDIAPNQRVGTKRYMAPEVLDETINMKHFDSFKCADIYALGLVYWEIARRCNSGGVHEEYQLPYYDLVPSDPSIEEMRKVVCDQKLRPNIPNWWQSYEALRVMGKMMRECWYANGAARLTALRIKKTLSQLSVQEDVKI
PRKCI: Protein kinase C iota type (PRKCI, Homo sapiens, UniProt P41743)
Sequence of UniProt P41743 (whole entry, looked up): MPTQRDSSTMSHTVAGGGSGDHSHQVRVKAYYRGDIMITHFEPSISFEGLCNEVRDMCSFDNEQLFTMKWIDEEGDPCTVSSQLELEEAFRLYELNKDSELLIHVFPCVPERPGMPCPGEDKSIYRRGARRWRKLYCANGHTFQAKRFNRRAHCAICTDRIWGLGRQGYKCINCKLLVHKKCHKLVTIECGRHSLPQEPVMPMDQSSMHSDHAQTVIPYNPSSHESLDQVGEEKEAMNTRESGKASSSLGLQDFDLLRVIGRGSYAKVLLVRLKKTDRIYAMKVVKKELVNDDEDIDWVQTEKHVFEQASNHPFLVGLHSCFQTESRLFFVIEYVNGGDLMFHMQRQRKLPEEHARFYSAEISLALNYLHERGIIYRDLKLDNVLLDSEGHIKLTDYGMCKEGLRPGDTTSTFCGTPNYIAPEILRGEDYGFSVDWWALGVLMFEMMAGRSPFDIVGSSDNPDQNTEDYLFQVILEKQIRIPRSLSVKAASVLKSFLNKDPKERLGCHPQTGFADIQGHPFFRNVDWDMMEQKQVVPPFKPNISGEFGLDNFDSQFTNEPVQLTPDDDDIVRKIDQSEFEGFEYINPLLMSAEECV
Sequence of UniProt P49935 (whole entry, looked up): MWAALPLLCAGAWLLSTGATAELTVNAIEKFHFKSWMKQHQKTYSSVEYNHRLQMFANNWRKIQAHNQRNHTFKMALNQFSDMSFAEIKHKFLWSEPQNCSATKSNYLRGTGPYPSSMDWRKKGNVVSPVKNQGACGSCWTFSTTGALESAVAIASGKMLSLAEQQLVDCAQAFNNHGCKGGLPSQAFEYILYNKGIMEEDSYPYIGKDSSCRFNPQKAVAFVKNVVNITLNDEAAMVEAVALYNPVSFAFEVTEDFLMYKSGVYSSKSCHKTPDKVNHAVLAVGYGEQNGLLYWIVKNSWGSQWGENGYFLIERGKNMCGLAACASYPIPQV
Sequence of UniProt Q96J92 (whole entry, looked up): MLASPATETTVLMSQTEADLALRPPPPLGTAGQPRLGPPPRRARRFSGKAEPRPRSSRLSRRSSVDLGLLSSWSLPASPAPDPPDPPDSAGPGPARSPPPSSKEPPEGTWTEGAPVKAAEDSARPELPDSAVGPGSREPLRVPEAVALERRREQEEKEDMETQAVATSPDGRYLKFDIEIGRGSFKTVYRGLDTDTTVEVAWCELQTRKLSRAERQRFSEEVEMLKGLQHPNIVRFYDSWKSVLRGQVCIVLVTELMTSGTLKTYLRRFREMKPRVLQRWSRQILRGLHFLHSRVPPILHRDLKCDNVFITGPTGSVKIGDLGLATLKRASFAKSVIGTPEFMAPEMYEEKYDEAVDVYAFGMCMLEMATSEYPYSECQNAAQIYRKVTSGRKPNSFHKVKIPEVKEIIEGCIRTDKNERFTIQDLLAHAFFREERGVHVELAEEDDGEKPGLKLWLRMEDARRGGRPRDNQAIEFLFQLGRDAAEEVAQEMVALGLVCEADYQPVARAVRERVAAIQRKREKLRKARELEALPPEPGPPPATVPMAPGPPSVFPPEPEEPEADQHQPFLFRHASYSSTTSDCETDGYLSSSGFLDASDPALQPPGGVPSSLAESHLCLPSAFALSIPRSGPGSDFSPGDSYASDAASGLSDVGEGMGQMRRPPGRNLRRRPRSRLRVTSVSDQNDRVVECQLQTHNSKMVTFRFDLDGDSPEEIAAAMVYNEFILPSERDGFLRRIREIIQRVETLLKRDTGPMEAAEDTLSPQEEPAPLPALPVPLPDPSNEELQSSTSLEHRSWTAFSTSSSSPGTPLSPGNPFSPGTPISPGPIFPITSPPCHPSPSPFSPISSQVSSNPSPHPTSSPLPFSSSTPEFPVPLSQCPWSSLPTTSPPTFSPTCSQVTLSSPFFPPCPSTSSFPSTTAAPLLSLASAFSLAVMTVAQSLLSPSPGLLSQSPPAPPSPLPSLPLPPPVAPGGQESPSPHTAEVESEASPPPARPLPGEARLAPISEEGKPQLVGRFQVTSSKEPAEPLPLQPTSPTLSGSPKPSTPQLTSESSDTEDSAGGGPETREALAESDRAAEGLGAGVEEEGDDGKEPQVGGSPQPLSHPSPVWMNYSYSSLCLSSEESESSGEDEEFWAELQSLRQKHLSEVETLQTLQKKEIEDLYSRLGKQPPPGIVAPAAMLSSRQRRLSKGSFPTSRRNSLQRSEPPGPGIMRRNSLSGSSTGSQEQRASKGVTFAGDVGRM
Sequence of UniProt P33424 (whole entry, looked up): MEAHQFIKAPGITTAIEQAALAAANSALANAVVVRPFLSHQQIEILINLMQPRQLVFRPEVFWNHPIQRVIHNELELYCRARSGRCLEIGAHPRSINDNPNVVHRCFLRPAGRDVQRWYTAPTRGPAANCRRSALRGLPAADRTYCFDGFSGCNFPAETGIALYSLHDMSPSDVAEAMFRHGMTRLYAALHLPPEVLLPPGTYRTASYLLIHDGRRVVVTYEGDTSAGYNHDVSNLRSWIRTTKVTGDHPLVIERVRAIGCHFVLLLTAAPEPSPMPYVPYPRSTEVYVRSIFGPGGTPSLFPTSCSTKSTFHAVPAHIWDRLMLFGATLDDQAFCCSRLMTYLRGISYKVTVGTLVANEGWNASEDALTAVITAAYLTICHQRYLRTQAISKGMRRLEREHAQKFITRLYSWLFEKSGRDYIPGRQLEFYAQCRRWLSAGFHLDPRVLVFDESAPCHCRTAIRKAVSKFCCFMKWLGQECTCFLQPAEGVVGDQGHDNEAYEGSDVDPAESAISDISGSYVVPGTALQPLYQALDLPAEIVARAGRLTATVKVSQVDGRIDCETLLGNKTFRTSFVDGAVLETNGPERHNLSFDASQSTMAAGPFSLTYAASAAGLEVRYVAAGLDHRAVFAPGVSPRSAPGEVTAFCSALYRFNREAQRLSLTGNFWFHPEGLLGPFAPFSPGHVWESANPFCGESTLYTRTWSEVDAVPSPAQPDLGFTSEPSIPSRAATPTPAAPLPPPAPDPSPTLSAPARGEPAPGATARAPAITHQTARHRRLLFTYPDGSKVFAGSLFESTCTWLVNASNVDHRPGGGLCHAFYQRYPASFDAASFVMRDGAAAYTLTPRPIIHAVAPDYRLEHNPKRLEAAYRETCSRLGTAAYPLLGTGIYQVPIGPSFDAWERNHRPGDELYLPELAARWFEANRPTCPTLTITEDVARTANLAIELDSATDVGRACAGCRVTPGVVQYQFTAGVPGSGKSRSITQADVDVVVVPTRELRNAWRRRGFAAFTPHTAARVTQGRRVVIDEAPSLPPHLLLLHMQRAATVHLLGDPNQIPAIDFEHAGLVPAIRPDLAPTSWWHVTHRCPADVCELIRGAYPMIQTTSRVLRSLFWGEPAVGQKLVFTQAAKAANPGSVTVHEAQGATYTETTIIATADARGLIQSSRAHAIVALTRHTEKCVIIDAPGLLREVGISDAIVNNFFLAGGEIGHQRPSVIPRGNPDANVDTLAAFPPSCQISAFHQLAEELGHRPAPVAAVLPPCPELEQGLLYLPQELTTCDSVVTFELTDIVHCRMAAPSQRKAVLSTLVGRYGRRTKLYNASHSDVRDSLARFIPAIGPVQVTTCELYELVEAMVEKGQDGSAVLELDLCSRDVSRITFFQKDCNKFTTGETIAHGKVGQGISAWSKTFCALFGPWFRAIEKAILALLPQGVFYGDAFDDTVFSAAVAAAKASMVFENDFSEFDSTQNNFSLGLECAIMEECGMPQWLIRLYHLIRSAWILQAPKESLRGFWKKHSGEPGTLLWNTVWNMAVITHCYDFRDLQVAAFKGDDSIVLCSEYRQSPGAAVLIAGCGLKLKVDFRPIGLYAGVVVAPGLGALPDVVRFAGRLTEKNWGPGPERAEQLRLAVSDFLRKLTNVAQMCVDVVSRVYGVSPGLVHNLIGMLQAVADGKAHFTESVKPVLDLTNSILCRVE

The remaining activity of `COc1cc(-c2cncc3c2CN(C)Cc2cc(N4CCNCC4)ccc2-3)cc(OC)c1OC` is reported as 123% (WNK4 (Homo sapiens, UniProt Q96J92); kinase activity; 1 µM, human enzyme, with: ATP 10 µM; baseline: DMSO control).
`C=CC(=O)N1CCC[C@@H](n2nc(-c3ccc(Oc4ccccc4)cc3)c3c(N)ncnc32)C1` gave a remaining activity of 28.6% (TYK2 (Homo sapiens, UniProt P29597); 10 µM).
For `Cc1cc(Nc2cc(N3CCN(C)CC3)nc(Sc3ccc(NC(=O)C4CC4)cc3)n2)[nH]n1`, the remaining activity was 100% (ACVR1B; kinase activity, KinaseProfiler; 0.03 µM, species human; baseline: control).
With `NC(=O)c1ncn([C@@H]2O[C@H](CO[P@@](=O)(O)O[P@](=O)(O)OP(=O)(O)O)[C@@H](O)[C@H]2O)n1` the remaining activity was 71.5% (Non-structural polyprotein pORF1, RNA-dependent RNA polymerase (Hepatitis E virus genotype 1, UniProt P33424); polymerase activity, inhibitor, colorimetric; 28 µM; baseline: untreated).
The remaining activity of `O=C(O)c1ccc(Nc2ncc3c(n2)-c2ccc(Cl)cc2C(c2c(F)cccc2F)=NC3)cc1` is reported as 111% (human HIPK3(h); kinase activity; 1 µM).
The remaining activity of `O=C(NC1CCC1)c1ccc2nc(-c3cccc(NS(=O)(=O)NCCN4CCCCC4)c3)cn2c1` is reported as 100% (ACVR1B; enzyme activity; 10 µM).
The remaining activity of `COc1cc(F)ccc1-c1ncnc(Nc2cccc(C[S@](C)(=N)=O)c2)n1` is reported as 104% (PRKCI; kinase activity; 10 µM, with: 10 µM ATP).
`Cc1cccc(C)c1C(=O)OCC(=O)[C@H](CCCCN)NC(=O)[C@H](CCCNC(=N)N)NC(=O)OCc1ccccc1` gave a remaining activity of 95% (Pro-cathepsin H (Ctsh, Mus musculus, UniProt P49935); inhibitor; 0.1 µM, with: AMC fluorogenic substrate; baseline: untreated).
For `COc1cc(Nc2ncc3c(n2)-c2ccc(Cl)cc2C(c2c(F)cccc2OC)=NC3)ccc1C(=O)O`, the remaining activity was 97% (PRKX; kinase activity; 1 µM).
With `CNc1ncc2c(/C=C/C(=O)N3CCC(OC)CC3)nn(Cc3cccc(C(F)(F)F)c3)c2n1` the remaining activity was 95% (PRKCI; kinase activity, inhibitor; 1 µM; baseline: untreated control).

For quick reference, copied from above:
For `COc1cc(Nc2ncc3c(n2)-c2ccc(Cl)cc2C(c2c(F)cccc2OC)=NC3)ccc1C(=O)O`, the remaining activity was 97% (PRKX; kinase activity; 1 µM).
